Measured values of several laboratories.
Protocols differ between the studies behind these lines. Several values in a cell are separate wells, animals, samples, runs or records. ± gives the spread as reported.
CASP7: Caspase-7 (CASP7, Homo sapiens, UniProt P55210)
Gria2: Glutamate receptor 2 (Gria2, Rattus norvegicus, UniProt P19491)
T1: G-quadruplex DNA, G-quadruplex (Homo sapiens); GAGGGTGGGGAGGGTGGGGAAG

O=C(Nc1cccc(CO)c1)c1cc(-c2ccccc2)n(-c2ccccc2)n1  inhibition (Genome polyprotein, NS2B-NS3 protease (dengue virus type 2, UniProt P29990); enzyme activity, fluorogenic AMC substrate; 50 µM): 47%
CC[C@H](C)[C@H](NC(=O)[C@H](CCC(=O)O)NC(=O)[C@H](Cc1ccc(I)cc1)NC(C)=O)C(=O)N[C@@H](CC(=O)O)C(=O)COC(=O)c1c(C)cccc1C  kinact/KI (CASP7; enzyme activity, inhibitor): 64300 M⁻¹ s⁻¹
C=CC(=O)N1CCC(c2cc(C(=O)O)n(C)n2)CC1  relative abundance (Fosb/Jund, ΔFosB bZIP domain (Mus musculus, UniProt P13346+P15066); intact mass LC-MS, refers to: unmodified JUND bZIP; concentration not given; baseline: total JUND species): 30.7%
C=C(NC(=O)c1csc(-c2nc3c(cc2O)-c2nc(cs2)C(=O)NC(C(C)O)C(=O)NC(=C(C)OC)c2nc(cs2)C(=O)NC2c4nc(cs4)C(=O)NC(COC(=O)c4c5c6c(cccc6n4O)COC(=O)C(OC4CC(C)(O)C(N(C)C)C(C)O4)C2OC5)c2nc-3cs2)n1)C(N)=O (stereo not shown)  AUC(0-t) (ICR mice, Streptococcus pneumoniae ATCC 49169 infected, immunocompromised, blood; intravenous, 2 mg/kg three times daily): 0.131 µM·h
Cc1nn(-c2cccc(N)c2)c(=O)c2cnc(Nc3ccc(N4CCNCC4)cc3)nc12  IC50 (YES1 (Homo sapiens, UniProt P07947); kinase activity, inhibitor, SelectScreen kinase profiling): 468 nM
C=CC(=O)N1CCCC(n2c(=O)c3ncccc3n(Cc3ccc(Oc4ccccc4)cc3)c2=O)C1 (stereo not shown)  melting temperature shift (CCT8 (Homo sapiens, UniProt P50990); thermal proteome profiling; cell proteome; unit not given; baseline: vehicle): -1.31
CNC1C[S+]2CC[S+]3CC[S+](C1)[Ru-4]321([N]=C=S)[n]2c3ccc(OC)cc3c3c4c(c5cc(F)c[n+]1c5c32)C(=O)NC4=O (stereo not shown)  remaining binding (Tyrosine-protein kinase ABL1, non-phosphorylated (ABL1, Homo sapiens, UniProt P00519); KinomeScan; 0.1 µM; baseline: untreated): 97%
Cc1cc(NC(=O)[C@H](O)c2cc(F)cc(F)c2)ccc1-c1cnc(N)c(C(=O)NC(C)C)c1  remaining binding (MAP3K2 (Homo sapiens, UniProt Q9Y2U5); binding, competition with immobilised ligand; 10 µM): 14%
CCCCCC(O)/C=C/C=O (stereo not shown)  isoTOP-ABPP competition ratio (MOB4 (Homo sapiens, UniProt Q9Y3A3); competitive isoTOP-ABPP; proteome, soluble, MDA-MB-231; 100 µM, 60 min, added: iodoacetamide probe; baseline: DMSO over compound-treated, higher = stronger cysteine blockade): 1.6
C=CC(=O)Nc1cccc(Cn2ncc3cnc(Nc4cnn(CCOC)c4)nc32)c1  percent of control (ERBB2 human; binding, KINOMEscan; 100 nM; lower = stronger binding): 88%
C#CCCC1(CCC(=O)NCC2CN(CCCCCNC(=O)CN(CCN)C(=O)Cn3cnc4c(=O)[nH]c(N)nc43)CCN(CCCCCNC(=O)CN(CCN)C(=O)Cn3cnc4c(=O)[nH]c(N)nc43)CCN(CCCCCNC(=O)CN(CCN)C(=O)Cn3cnc4c(=O)[nH]c(N)nc43)CCN2CCCCCNC(=O)CN(CCN)C(=O)Cn2cnc3c(=O)[nH]c(N)nc32)N=N1 (stereo not shown)  change in melting temperature (T1, G-quadruplex DNA, G-quadruplex (Homo sapiens); FRET melting): 15.4 °C
CC(C)Oc1cc(Cl)ccc1CNc1cc(-c2ccccc2)nc2ncnn12  cAMP luminescence (GPR3 (Homo sapiens, UniProt P46089, M156A); cAMP level, cAMP GloSensor; 30 µM; higher = more cAMP): 6280 a.u. and 4740 a.u. and 5740 a.u. and 4600 a.u.
COC1CN([C@H]2CC[C@H]([C@@]3(C)Oc4c(Cl)cc(C(=O)NCc5c(SC)cc(C)[nH]c5=O)c(C)c4O3)CC2)C1  log2 fold change (RNA-seq, refers to: MAP1LC3A mouse homolog; mouse, HT-1376 xenograft, whole blood; dose not given; baseline: vehicle): 1.3
[2H]C([2H])([18F])Oc1cc(C(=O)OCC2CCN(CCCC)CC2)ccc1N  binding potential BPND (5-HT4 receptor binding, PET; rhesus monkey (Macaca mulatta), brain striatum; dose not given, baseline scan, unit not given; baseline: cerebellum reference region): 1.19 ± 0.15
CCOC(=O)[C@@](CC)(CCCSCCOCCOCCNC(=O)OC(C)(C)C)NC(=O)c1ccc(C2CC2)c(Cc2ccc(F)cc2)n1  Ki ratio (CNR2 (Homo sapiens, UniProt P34972); radioligand binding; baseline: CB1 over CB2 (human)): 10
O=C(O)Cc1cc2c(cc1C(=O)c1ccccc1I)OCO2  current amplitude ratio (Gria2; glutamate-evoked current, whole-cell patch clamp; HEK-293T; concentration not given; baseline: glutamate alone): 2.64 ± 0.1
Cc1ncsc1-c1ccc(C(C)NC(=O)C2CC(O)CN2C(=O)C(NC(=O)CCCCCCCCCCN2CCCC(Nc3ncc(Cl)c(Nc4ccccc4S(=O)(=O)C(C)C)n3)C2)C(C)(C)C)cc1 (stereo not shown)  log2 fold change (22Rv1; RNA-seq, refers to: RNF135 mRNA; concentration not given; baseline: DMSO): -1.31
CC(=O)NCCCC[C@H](NC(C)=O)C(=O)N[C@@H](CCCC(=O)O)C(=O)N[C@@H](C)C(=O)N[C@@H](CC(=O)O)C(=O)COC(=O)c1c(C)cccc1C  kinact/KI (CASP7; enzyme activity, inhibitor): 3000 M⁻¹ s⁻¹
Cc1cc(-c2n[nH]cc2C(=O)Nc2ccc(C)c(F)c2)ccn1  number of kinases hit (human kinase panel; binding, KINOMEscan; 10000 nM, %Ctrl below 10): 0
O=C(Nc1cnccc1-c1ccc([18F])nc1)c1ccnc(NC(=O)C2CC2)c1  SUV (FVB/NJ mice (both sexes), bladder; intravenous, dose not given, 120 min): 0.563
COC(=O)Cc1cc2c(cc1C(=O)c1ccc(Cl)cc1Cl)OCO2  current amplitude after recovery (Gria2; glutamate-evoked current, whole-cell patch clamp; HEK-293T; concentration not given, glutamate alone after washout, added: glutamate): 1260 ± 64 pA
N#CN1CC[C@H](C(=O)Nc2nc3c(s2)CN(C(=O)Cn2cc(COCCOCCOCCOCCNC(=O)CCCC[C@@H]4SC[C@@H]5NC(=O)N[C@@H]54)nn2)CC3)C1  iBAQ abundance (USP19 (Homo sapiens, UniProt O94966); probe binding, affinity probe, neutravidin pull-down LC-MS/MS; HEK293T, cell lysate; 5 µM, 1 h, single replicate, unit not given; higher = more pulled down): 878000 and 1.25e+06 and 1.46e+06

Repeated from above:
Cc1nn(-c2cccc(N)c2)c(=O)c2cnc(Nc3ccc(N4CCNCC4)cc3)nc12  IC50 (YES1 (Homo sapiens, UniProt P07947); kinase activity, inhibitor, SelectScreen kinase profiling): 468 nM
C=CC(=O)N1CCCC(n2c(=O)c3ncccc3n(Cc3ccc(Oc4ccccc4)cc3)c2=O)C1 (stereo not shown)  melting temperature shift (CCT8 (Homo sapiens, UniProt P50990); thermal proteome profiling; cell proteome; unit not given; baseline: vehicle): -1.31
CNC1C[S+]2CC[S+]3CC[S+](C1)[Ru-4]321([N]=C=S)[n]2c3ccc(OC)cc3c3c4c(c5cc(F)c[n+]1c5c32)C(=O)NC4=O (stereo not shown)  remaining binding (Tyrosine-protein kinase ABL1, non-phosphorylated (ABL1, Homo sapiens, UniProt P00519); KinomeScan; 0.1 µM; baseline: untreated): 97%
